Measurements pooled from the literature.
Compare with care: the assays were run in different laboratories. ± gives the spread as reported.
Sequence of UniProt Q08881 (whole entry, looked up): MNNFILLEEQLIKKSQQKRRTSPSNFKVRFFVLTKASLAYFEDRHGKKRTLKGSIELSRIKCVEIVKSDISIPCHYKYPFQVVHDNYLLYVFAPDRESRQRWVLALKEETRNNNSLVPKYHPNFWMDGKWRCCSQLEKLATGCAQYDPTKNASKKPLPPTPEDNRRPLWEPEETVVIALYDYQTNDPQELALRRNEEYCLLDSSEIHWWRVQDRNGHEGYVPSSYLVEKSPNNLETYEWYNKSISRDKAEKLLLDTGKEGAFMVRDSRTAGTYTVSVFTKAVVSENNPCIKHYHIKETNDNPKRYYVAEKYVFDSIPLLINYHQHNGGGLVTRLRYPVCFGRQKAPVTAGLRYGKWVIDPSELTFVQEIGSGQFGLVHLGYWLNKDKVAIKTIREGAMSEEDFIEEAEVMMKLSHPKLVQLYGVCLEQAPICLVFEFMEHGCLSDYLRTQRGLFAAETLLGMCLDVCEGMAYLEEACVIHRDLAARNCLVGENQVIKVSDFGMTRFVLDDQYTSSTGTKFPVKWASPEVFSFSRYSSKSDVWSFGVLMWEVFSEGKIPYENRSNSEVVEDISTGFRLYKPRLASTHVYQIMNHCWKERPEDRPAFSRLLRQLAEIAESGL
Sequence of UniProt P43250 (whole entry, looked up): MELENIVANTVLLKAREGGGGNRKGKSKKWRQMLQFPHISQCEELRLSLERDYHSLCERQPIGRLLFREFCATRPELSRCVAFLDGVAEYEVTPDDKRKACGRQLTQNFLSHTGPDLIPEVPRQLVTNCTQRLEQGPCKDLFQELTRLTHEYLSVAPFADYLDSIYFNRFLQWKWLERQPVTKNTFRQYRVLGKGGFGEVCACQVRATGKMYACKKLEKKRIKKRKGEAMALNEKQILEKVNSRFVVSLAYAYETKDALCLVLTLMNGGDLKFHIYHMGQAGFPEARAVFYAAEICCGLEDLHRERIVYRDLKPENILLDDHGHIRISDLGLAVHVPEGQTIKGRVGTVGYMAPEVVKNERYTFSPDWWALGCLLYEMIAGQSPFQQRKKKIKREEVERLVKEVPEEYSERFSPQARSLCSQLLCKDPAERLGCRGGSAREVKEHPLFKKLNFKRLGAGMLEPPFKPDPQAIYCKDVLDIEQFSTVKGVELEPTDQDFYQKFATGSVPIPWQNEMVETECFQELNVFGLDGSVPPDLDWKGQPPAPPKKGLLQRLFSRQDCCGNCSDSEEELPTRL
Sequence of UniProt P06213 (whole entry, looked up): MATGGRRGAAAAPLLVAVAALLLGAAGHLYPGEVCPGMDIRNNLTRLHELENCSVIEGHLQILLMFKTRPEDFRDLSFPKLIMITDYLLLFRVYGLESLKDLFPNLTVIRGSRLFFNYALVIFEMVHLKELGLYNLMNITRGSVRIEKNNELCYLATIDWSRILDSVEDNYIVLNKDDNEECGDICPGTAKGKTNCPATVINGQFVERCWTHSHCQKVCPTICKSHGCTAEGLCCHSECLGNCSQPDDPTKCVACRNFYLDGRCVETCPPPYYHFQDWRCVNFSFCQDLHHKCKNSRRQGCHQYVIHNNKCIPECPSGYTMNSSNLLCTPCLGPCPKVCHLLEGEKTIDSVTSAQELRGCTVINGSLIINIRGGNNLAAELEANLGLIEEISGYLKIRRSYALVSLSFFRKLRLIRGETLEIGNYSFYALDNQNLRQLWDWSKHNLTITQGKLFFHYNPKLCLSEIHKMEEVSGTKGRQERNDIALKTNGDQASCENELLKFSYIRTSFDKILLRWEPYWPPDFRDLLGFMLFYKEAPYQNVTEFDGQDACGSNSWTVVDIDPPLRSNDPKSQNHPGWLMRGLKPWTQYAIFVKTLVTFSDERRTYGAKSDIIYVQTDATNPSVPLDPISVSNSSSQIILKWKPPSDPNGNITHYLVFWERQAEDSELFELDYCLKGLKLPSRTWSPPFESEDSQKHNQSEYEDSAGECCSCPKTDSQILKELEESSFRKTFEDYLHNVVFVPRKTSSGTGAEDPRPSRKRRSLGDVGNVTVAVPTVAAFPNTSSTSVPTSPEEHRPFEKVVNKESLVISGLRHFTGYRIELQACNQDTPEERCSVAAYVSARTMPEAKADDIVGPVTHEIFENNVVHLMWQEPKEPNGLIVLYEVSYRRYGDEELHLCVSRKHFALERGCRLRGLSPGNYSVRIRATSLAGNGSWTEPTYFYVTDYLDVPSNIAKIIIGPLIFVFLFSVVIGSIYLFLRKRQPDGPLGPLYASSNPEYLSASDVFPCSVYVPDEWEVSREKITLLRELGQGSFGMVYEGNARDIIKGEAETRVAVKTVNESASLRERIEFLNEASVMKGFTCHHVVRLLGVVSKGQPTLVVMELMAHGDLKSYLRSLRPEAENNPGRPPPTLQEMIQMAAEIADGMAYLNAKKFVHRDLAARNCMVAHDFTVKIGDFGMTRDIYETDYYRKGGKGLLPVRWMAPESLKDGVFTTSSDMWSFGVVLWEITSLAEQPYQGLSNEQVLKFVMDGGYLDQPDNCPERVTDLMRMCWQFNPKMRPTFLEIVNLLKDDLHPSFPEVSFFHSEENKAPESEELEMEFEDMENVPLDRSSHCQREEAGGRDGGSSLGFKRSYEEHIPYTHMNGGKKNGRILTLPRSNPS
Sequence of UniProt O75716 (whole entry, looked up): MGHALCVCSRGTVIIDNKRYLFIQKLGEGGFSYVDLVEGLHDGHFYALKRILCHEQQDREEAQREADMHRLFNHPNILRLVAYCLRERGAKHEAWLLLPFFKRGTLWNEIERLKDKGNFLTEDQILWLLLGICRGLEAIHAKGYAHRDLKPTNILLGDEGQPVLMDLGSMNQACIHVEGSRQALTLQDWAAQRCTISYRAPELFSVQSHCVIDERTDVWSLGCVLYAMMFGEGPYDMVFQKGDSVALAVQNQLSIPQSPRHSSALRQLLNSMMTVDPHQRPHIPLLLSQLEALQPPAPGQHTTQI
Sequence of UniProt P35968 (whole entry, looked up): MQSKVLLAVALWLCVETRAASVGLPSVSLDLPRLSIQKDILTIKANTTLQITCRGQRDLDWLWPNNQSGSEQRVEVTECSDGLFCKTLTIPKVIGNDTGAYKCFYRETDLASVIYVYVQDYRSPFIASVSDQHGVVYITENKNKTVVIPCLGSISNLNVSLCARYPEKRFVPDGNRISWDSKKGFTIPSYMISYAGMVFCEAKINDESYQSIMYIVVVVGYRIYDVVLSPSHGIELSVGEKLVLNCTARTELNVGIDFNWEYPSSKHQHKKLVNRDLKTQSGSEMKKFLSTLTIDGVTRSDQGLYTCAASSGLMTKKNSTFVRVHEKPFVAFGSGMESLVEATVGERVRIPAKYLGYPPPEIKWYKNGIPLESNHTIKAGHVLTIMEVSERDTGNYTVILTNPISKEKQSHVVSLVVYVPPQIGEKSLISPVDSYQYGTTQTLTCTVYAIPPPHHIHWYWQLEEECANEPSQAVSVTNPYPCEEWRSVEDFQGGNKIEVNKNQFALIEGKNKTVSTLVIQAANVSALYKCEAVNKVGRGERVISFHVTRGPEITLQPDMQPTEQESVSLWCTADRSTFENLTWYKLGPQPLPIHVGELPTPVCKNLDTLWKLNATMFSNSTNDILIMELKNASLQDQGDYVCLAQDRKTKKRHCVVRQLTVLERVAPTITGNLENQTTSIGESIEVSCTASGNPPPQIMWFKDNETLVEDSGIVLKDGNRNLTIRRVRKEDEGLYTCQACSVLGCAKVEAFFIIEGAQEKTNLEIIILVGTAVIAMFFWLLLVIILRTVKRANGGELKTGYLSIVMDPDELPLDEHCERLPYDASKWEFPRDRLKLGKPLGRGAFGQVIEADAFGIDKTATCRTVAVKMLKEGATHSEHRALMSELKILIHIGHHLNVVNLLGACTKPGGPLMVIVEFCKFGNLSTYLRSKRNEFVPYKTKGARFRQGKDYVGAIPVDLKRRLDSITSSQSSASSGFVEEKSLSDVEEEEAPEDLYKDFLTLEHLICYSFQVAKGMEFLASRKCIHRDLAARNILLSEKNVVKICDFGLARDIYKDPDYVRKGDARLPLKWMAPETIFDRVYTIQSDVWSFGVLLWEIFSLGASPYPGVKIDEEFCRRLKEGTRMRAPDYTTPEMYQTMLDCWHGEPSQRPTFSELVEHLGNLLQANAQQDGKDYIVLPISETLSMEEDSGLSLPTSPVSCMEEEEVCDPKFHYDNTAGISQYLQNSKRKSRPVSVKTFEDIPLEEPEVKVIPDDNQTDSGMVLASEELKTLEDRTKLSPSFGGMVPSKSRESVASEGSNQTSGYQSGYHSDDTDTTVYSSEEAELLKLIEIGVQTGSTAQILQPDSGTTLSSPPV
Sequence of UniProt Q00534 (whole entry, looked up): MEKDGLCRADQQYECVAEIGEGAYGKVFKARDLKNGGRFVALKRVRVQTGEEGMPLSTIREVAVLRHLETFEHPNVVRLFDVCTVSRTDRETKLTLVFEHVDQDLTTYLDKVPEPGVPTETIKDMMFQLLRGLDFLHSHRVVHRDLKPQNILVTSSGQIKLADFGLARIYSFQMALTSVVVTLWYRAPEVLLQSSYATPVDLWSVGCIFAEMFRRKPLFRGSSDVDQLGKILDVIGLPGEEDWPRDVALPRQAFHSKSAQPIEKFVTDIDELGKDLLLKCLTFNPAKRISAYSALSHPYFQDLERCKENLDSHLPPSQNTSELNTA
Sequence of UniProt Q9Y6M4 (whole entry, looked up): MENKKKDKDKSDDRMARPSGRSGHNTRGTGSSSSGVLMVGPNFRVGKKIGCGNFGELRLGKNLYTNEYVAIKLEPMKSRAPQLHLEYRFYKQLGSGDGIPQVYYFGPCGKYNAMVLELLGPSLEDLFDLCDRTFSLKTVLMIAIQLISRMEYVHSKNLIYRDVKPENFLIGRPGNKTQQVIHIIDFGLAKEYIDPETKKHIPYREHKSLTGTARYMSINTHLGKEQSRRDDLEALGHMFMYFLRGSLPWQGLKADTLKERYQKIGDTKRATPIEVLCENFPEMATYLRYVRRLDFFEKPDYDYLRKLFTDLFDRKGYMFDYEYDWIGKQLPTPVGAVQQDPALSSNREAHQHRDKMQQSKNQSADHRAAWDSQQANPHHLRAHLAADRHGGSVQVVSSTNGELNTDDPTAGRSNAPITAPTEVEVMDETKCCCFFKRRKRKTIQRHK

O=C(CN1CN(c2ccccc2)C2(CCN(C(=O)c3cnc4[nH]ncc4c3)CC2)C1=O)NCC(F)(F)F — inhibition (EGFR (Homo sapiens, UniProt P00533, del746-750); inhibitor; concentration not given): < 50%
CN(C)[C@H]1C[C@@]23CC[C@@]4(O2)C(=CC[C@]2(C)[C@@H](c5ccc6ccncc6c5)CC[C@H]24)C=C3[C@@H](O)[C@@H]1O — inhibition (STK16 (Homo sapiens, UniProt O75716); ATP probe labelling, inhibitor, KiNativ profiling; 1 µM): 3.2%
CS(C)(=O)=Nc1ccc(-c2ccc(-c3nc4cc(O[C@@H]5CO[C@H]6[C@@H]5OC[C@H]6O)[nH]c4cc3F)cc2)cc1 — inhibition (GRK6 (Homo sapiens, UniProt P43250); enzyme activity, inhibitor; 10 µM): 0%
CN(/N=C/c1ccccc1C(=O)O)c1nc(-c2ccccc2Cl)cs1 — inhibition (Cyclin-dependent kinase 6, with cyclin D1 (CDK6, Homo sapiens, UniProt Q00534); enzyme activity, inhibitor; 1 µM): -5.92%
C[C@H](NCc1ccc(-c2ccc(C(F)(F)F)cc2)cc1)C(N)=O — inhibition (Insulin receptor (INSR, Homo sapiens, UniProt P06213); kinase activity, SafetyScreen panel; 1 µM, with: 200 µg/mL poly(Glu:Tyr)): -15%
O=C(O)c1ccccc1/C=N/Nc1nc(-c2ccccc2Cl)cs1 — inhibition (ITK (Homo sapiens, UniProt Q08881); enzyme activity, inhibitor; 1 µM): 22.4%
CC(C)[C@H]1NC(=O)C[C@H]2/C=C/CCSSC[C@@H](NC1=O)C(=O)N[C@H](Cc1cccc3ccccc13)C(=O)NCC(=O)O2 — inhibition (CSNK1G3 (Homo sapiens, UniProt Q9Y6M4); enzyme activity, inhibitor; 10 µM): 1.3%
N[C@H](C(=O)N1CCCC1)C1CCN(c2nccc3c(-c4ncc(Cl)cc4Cl)cccc23)CC1 — inhibition (KDR (Homo sapiens, UniProt P35968); kinase activity, inhibitor; 10 µM, with: ATP 1 mM): 11.8%
O=C1NC2(CC2)COc2ncc(F)cc2[C@H]2COCCN2c2ccn3ncc1c3n2 — APTT (Sprague-Dawley rats, female, blood; oral, 10 mg/kg/day, end of recovery, 4-week subacute toxicity): 14.8 ± 1.7 s
COc1ccc(F)cc1S(=O)(=O)Nc1cnc2c(c1)C(=O)NCCO2 — inhibition (angiotensin-converting enzyme; enzyme activity; 10 µM): -15%

A few entries again:
O=C1NC2(CC2)COc2ncc(F)cc2[C@H]2COCCN2c2ccn3ncc1c3n2 — APTT (Sprague-Dawley rats, female, blood; oral, 10 mg/kg/day, end of recovery, 4-week subacute toxicity): 14.8 ± 1.7 s
